Measurements from different studies.
Numbered parts are unrelated; each lists some results of a single study. Changes are numbered by the printed parent chain.

Study 1
Target: ABI1, truncated, D143A, DHFR fusion (Arabidopsis thaliana)
Technique: DHFR PCA, deep sequencing
Sample: yeast
Notes: methotrexate growth selection, single substitutions
With: (+)-ABA 17 µM
Baseline: wild-type fitted maximum
Direction: higher = stronger binding
Starting sequence: PYL1, truncated, DHFR fusion (Arabidopsis thaliana); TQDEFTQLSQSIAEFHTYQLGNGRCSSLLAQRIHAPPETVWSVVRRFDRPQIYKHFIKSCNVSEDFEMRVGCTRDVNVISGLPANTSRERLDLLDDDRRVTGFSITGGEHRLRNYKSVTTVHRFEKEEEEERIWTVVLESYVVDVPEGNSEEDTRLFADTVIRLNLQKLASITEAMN; partner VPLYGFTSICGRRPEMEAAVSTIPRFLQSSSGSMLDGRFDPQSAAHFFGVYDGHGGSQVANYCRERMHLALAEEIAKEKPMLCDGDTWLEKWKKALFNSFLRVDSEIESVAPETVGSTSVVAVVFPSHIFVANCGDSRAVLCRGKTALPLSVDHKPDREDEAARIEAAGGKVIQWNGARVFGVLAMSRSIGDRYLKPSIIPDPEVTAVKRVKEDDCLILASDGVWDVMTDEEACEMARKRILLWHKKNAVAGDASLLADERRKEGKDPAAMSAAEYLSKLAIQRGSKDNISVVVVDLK
| Variant | relative binding score [%] |
| --- | --- |
| L8W | 69.2 |
| I105C | 48.5 |
| E125L | 82.9 |
| Q7W | 85 |
| L138S | 14.2 |
| K58F | 27 |
| V44Y | -6.13 |
| V62N | -13 |
| D153E | 94.4 |
| V118T | 98.8 |
| Q19S | 84.3 |
| E64Q | 87.6 |

Study 2
Target: Ras GTPase-activating protein-binding protein 1, full length (G3BP1, Homo sapiens, UniProt Q13283)
Sequence of UniProt Q13283 (whole entry, looked up): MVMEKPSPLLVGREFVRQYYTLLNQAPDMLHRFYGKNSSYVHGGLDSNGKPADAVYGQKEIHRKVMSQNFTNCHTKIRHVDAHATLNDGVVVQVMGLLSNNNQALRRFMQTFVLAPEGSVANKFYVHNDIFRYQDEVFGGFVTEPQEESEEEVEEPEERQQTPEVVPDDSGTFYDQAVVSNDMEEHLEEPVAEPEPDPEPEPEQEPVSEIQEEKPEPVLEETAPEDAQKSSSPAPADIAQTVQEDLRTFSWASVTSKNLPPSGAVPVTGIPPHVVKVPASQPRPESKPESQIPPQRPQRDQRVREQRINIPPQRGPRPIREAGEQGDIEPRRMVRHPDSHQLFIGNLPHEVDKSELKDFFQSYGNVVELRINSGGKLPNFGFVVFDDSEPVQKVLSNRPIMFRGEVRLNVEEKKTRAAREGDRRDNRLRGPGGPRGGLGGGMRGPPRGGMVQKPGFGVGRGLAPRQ
Technique: RNA Bind-n-Seq
Form: RNA
Sample: in vitro
Tested at: 200 nM
Notes: whole 134-nt RNA, ends assumed
With: 150 mM LiCl
Baseline: input library
Direction: higher = stronger binding
All molecules: 7-deaza-guanosine replaces G
All sequences stand within: GGGAGUUCUACAGUCCGACGAUC … UGGAAUUCUCGGGUGUCAAGG
| Oligonucleotide | log2 enrichment |
| --- | --- |
| UUCUCUGCCGGCUCAGAGGAGAGGAGACGCCGUGAGCGGGACGACCAGAUGUACCGAGAGCGGCUGCGCACCUUGCUGGUCAUCGCGGUU | -1.08 |
| CCUGUGCUACACAUCGUAUGUACCGAAUCAAAUUUUUUUAAAUUUUUUUAAACCCCCAAAAAAGUAUUAUGUUACGCCGUUCGGAUCUGC | 0.443 |
| ACCACUGCUACAGUCACCACCACCCAGGCCUCCUAUGCAGCUCAGUCUGCAUAUGGCACUCAGCCUGCUUAUCCAGCCUAUGGGCAGCAG | 1.2 |
| UCCUGUGCUACACAUCGUAUGUACCGAAUCGGGGUUUGGGGAAAAAAAGGGGUUUGGGGAAAGUAUUAUGUUACGCCGUUCGGAUCUGCA | -0.279 |
| UAACUUUAGAGGAGGAUCUGAUGGACAUGGCAGUGGACGUGGAUUUGGGGAUGGCUAUAAUGGGUAUGGAGGAGGACCUGGAGGUGGCAA | -0.233 |
| CAAGUCCUGUGCUACACAUCGUAUGUACCGAAUCGGAGGUUUUUUUGGUUUUUGGAAAGUAUUAUGUUACGCCGUUCGGAUCUGCACUUC | -1.24 |
| UCAAGUCCUGUGCUACACAUCGUAUGUACCGAAUCGGGCCGGGCCGGGCCGGGGAAAGUAUUAUGUUACGCCGUUCGGAUCUGCACUUCC | 0.566 |
| AGUCCUGUGCUACACAUCGUAUGUACCGAAUCGGGGAAAAAGGGGAAAGGGGUGGGGAAAGUAUUAUGUUACGCCGUUCGGAUCUGCACU | -0.0835 |
| UCCUGUGCUACACAUCGUAUGUACCGAAUCGGGGAGGGGUUUUUUUGGGGAAAAAGGGGAAAGUAUUAUGUUACGCCGUUCGGAUCUGCA | 0.508 |
| UCCUCAAGUCCUGUGCUACACAUCGUAUGUACCGAAUCGGGCGGCGGGGCGGAAAGUAUUAUGUUACGCCGUUCGGAUCUGCACUUCCAG | 0.395 |
| ACCAUGCAGAAAGGCAUCUUUGGGAAGUGGGGCAAGGGGGGGAUAGGGAGGGGGGUAACACUUUGGGAACAGGUGGUCCCAGGUCGUUUC | -0.0135 |

Study 3
Target: Phosphate system positive regulatory protein PHO4, full length, GST-tagged (PHO4, Saccharomyces cerevisiae, UniProt P07270, residues 1-312)
Sequence of UniProt P07270 (whole entry, looked up): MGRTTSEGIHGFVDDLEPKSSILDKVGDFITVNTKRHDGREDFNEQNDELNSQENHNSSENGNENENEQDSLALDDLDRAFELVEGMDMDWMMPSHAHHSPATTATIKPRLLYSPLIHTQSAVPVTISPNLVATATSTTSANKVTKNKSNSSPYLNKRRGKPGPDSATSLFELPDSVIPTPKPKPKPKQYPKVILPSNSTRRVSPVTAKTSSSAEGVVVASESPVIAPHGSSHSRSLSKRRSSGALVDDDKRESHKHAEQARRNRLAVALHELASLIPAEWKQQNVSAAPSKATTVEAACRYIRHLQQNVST
Technique: competition protein-binding microarray
Form: double-stranded DNA, one strand shown
Sample: in vitro
Tested at: 2 µM
Notes: whole 60-bp probe, lowest competitor level
With: Cbf1 competitor, 0.05 µM
Direction: higher = stronger binding
All sequences stand within: … GTCTTGATTCGCTTGACGCTGCTG
| Oligonucleotide | fluorescence intensity [a.u.] |
| --- | --- |
| GTCTTGTCTCATTGTGAAGTGGGTGTCCCCACTTCA | 4610 |
| CTTTCCCGATCTTGGAGAGTGGGTGTAGCACATTTG | 4500 |
| CCGCTTTGGAATTTATTCGTGCCGAAAAGACTCAAG | 4150 |
| AATTGGAAAGGCCTTCACATGGTGATCCATCTTCTA | 5340 |
| CATAACAGTCTAGAGCGCGTGGGTAATACGGCTGTT | 12000 |
| CGACATCTATCGCCATTCGTGCGGACATTTCTCGAA | 5950 |
| CATACCCAACCTTGTCACAGGACTTAAGATATTTGT | 3620 |
| AAAACTTGGTTATCGCACGCTGAAAAGCGCGTTCTC | 6360 |
| AACGGCGTCCGCAGAACCGTGACGGAATCTGCGGTT | 5120 |
| CCACCCCAATTCCATCACGTCCATACCAGGGGCGTA | 5040 |
| AAATGTTGCTGCATAACCGTGCGATAAAACCTCATA | 7530 |
| CTTCTGTAAATTTGTCACGCCACTTGACGCGCCCCG | 5070 |
| CGTCCTAGTGATTGTCACACTACTTCCATGAGGAAG | 4660 |
| GTCTTGTCTCATTGTCGGGTGGGTGTCCCCACTTCA | 4570 |
| GAAGCACTTGCCTTCACCGTGCGGAGCGTCGAATTG | 5850 |
| GTCTATAAATGCTGGCACGTGCGATCATCGCGGCGG | 19100 |
| CATACCCAACCTTGTGCAGTGGGTGAAGATATTTGT | 7060 |
| TGTCACTGGGTTTAGCACGGGTGTCATCAAGCTATG | 10500 |
| TGTCCCAATCTAACACACATGAGTCGTCGAACGCCA | 6000 |

Study 4
Target: CCNB1, cyclin fold, Cln2 fusion (human)
Technique: yeast growth competition, sequencing
Sample: yeast
Notes: strong parent motif
Baseline: not given
Direction: higher = stronger binding
Starting sequence: E2F1 docking peptide (human); PPVKRRLDLETDH
| Variant | normalised enrichment score |
| --- | --- |
| PPVKWRLDLETDH [R5W] | 0.536 |
| PPVKRRLDLETDW [H13W] | 0.952 |
| PPVKRRLDLHTDH [E10H] | 1.68 |
| PPVKRRLDLEFDH [T11F] | 2.58 |
| PPVKKRLDLETDH [R5K] | 0.0421 |
| PPYKRRLDLETDH [V3Y] | 0.116 |
| PPVKRRLDLETDN [H13N] | 0.952 |
| PPPKRRLDLETDH [V3P] | 0.651 |
| PPLKRRLDLETDH [V3L] | 0.326 |
| PPVKRRLDFETDH [L9F] | 4.92 |
| PPVKRRLDLEWDH [T11W] | 1.94 |
| PPFKRRLDLETDH [V3F] | 0.268 |
| SPVKRRLDLETDH [P1S] | 0.819 |
| MPVKRRLDLETDH [P1M] | 1.78 |
| PPVKRRQDLETDH [L7Q] | 0.0527 |
| PPVKRRCDLETDH [L7C] | 0.807 |
| PSVKRRLDLETDH [P2S] | 0.648 |
| PPVARRLDLETDH [K4A] | 2.09 |

Study 5
Target: Sal-like protein 4, full length isoform B (SALL4, Homo sapiens, UniProt Q9UJQ4-2, residues 1-616)
Technique: universal PBM
Form: double-stranded DNA, one strand shown
Sample: in vitro
Tested at: not given
Notes: 8-mer, flanks averaged, mean of replicates
Direction: higher = stronger binding
| Oligonucleotide | E-score |
| --- | --- |
| AAAGGTTC | 0.0202 |
| ACAATTCC | 0.0352 |
| CGCTGGCC | -0.417 |
| AACCTCGA | 0.0173 |
| AACACTGC | -0.053 |
| CAGCCTCG | -0.207 |
| CCCCTCCC | -0.269 |
| CATTCTAC | 0.0578 |
| AACTGGAA | 0.00328 |
| GGCATAAC | 0.15 |
| CACAGTCC | -0.208 |
| AGCCTATA | 0.172 |
| CGTTAATC | 0.136 |
| GATACGAC | 0.0136 |
| AAGGGAGC | -0.317 |
| CCGTGATA | 0.0124 |
| CAATCGTA | 0.182 |
| ACCGCCCC | -0.274 |
| AAGAGATG | -0.0344 |
| TCGCGTCA | -0.0809 |
| CGTTACAC | -0.118 |
| ATTTTTGG | 0.15 |
| CAACCAGG | -0.214 |
| CACTCCAG | -0.052 |
| CTGTGTTA | 0.0284 |

Study 6
Target: Histone acetyltransferase KAT6A, winged helix 1, GST fusion (KAT6A, Homo sapiens, UniProt Q92794, residues 1-85)
Technique: protein binding microarray
Form: double-stranded DNA, one strand shown
Sample: in vitro
Tested at: not given
Notes: 8-mer, flanks averaged, mean of 2 arrays, mostly near background
Baseline: not given
Direction: higher = stronger binding
Construct (chain): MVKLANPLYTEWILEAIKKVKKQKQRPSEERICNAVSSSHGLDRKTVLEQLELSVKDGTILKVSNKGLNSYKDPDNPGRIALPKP
| Oligonucleotide | E-score |
| --- | --- |
| AAATCCCC | -0.0576 |
| GATATGAC | -0.0383 |
| CATAGTCG | 0.0272 |
| ACCCCCCT | -0.189 |
| CTCAGTCA | -0.172 |
| AGACGTCT | -0.142 |
| CCACGGTC | 0.0871 |
| TGTTCTAA | -0.1 |
| GTCCCAAA | -0.194 |
| AGTACATA | -0.083 |
| ATTCCTTG | -0.03 |
| AAGCCGAC | 0.325 |
| AAGACGGA | 0.0652 |
| CCACCCCG | 0.21 |
| AACTCCAC | -0.121 |
| GCGCTTCA | 0.305 |
| GACCTGCA | -0.211 |
| ACCGGGGA | 0.27 |
| ATTTCGAC | 0.0338 |
| CCCGTTCA | 0.107 |
| AGGTTGTA | -0.00244 |
| GATGGCGC | 0.261 |
| GTCTATGA | -0.0934 |
| AACGGCTG | 0.148 |
| GCTGAGAC | -0.0866 |
